Experimental data collected from several papers.
Compare with care: the assays were run in different laboratories. Values joined by “and” are separate records of one study, mostly repeats; a detail may differ. ± gives the spread as reported.

With `CC[C@H](C)[C@H](NC(=O)[C@H](CCCCN)NC(=O)CNC(=O)[C@H](CC(C)C)NC(=O)[C@H](Cc1ccccc1)NC(=O)[C@H](CCCCN)NC(=O)[C@H](CO)NC(=O)[C@H](Cc1ccccc1)NC(=O)[C@H](Cc1c[nH]c2ccccc12)NC(=O)[C@H](CCC(N)=O)NC(=O)[C@@H](NC(=O)[C@H](Cc1ccccc1)NC(=O)CCCCCNC(=O)CN1CCN(CC(=O)O)CCN(CC(=O)O)CCN(CC(=O)O)CC1)C(C)C)C(=O)N[C@@H](CCC(=O)O)C(=O)N1CCC[C@H]1C(=O)N[C@@H](CC(=O)O)C(=O)N[C@H](C(=O)N[C@@H](CO)C(=O)N[C@@H](CCC(N)=O)C(=O)N[C@H](C(=O)N[C@@H](CCC(N)=O)C(=O)N[C@@H](CC(=O)O)C(=O)N1CCC[C@H]1C(=O)N[C@@H](CC(N)=O)C(=O)N[C@@H](CC(=O)O)C(=O)N[C@@H](CCC(N)=O)C(=O)N[C@@H](Cc1ccc(O)cc1)C(=O)N[C@@H](CCC(=O)O)C(=O)N1CCC[C@H]1C(=O)N[C@@H](Cc1ccccc1)C(=O)O)C(C)C)C(C)C` [copper-64 labelled] the SUVmean was 1.2 SUV (dynamic PET; mouse, CT26 tumour, untreated, tumour; intravenous, 100 µCi/mouse, 2220 s).
`COc1c(N2CC3CCCNC3C2)c(F)cc2c(=O)c(C(=O)OCc3cnc([N+](=O)[O-])n3C)cn(C3CC3)c12` (stereo not drawn) has a reduction potential of -0.95 V (cyclic voltammetry; anhydrous acetonitrile; concentration not given; baseline: Ag/AgCl).
Under “PCE to total erythrocyte ratio”, `Cc1ccc(OCC(=O)N(Cc2cccs2)c2ccn[nH]2)cc1` is recorded as 0.62 ± 0.07 (micronucleus; CD-1 mouse Crl:CD-1(ICR), female, bone marrow; oral, 1500 mg/kg/day, 3 days).
With `CSCC[C@H](NC(=O)CNC(=O)[C@H](CCCCN)NC(=O)[C@H](CC(C)C)NC(=O)[C@@H]1CCCN1C(=O)[C@H](CO)NC(=O)[C@H](Cc1c[nH]cn1)NC(=O)[C@H](Cc1c[nH]c2ccccc12)NC(=O)[C@H](CCCNC(=N)N)NC(=O)[C@H](CC(C)C)NC(=O)[C@H](CCCNC(=N)N)NC(=O)[C@H](Cc1c[nH]c2ccccc12)NC(=O)[C@H](CS)NC(=O)CCCCCNC(=O)CN1CCN(CC(=O)O)CCN(CC(=O)O)CCN(CC(=O)O)CC1)C(=O)O` [copper-64 labelled] the tissue uptake was 0.17 %ID/g (ex vivo biodistribution; BALB/c nude mice, brain; intravenous, dose not given, 2 h, Huh-7 tumour-bearing).
For `CC(CCC(=O)NCC(=O)O)C1CCC2C3CCC4CC(OC5OC(C(=O)O)C(O)C(O)C5O)CCC4(C)C3CC(O)C12C` (stereo not drawn), “ratio of metabolic ratios” read 1.74 (measured: glucuronide to parent ratio; men, plasma; dose not given; baseline: T/C over T/T).
`Cc1ccc(N(C)C2CN(C)C2)cc1C(=O)N[C@H](C)c1cc(-c2cnn(C)c2)nc2ccccc12` gave a viability of 91.6% and 93.3% and 91.8% (Vero E6; 31.25 µM).
With `CCC1=C(C)C2=C(c3ccc(C(=O)NCCNC(=O)c4ccc(P(=NC5=[O+][Ru-]([Cl])[n+]6ccccc65)(c5ccccc5)c5ccccc5)cc4)cc3)c3c(C)c(CC)c(C)n3[B-](F)(F)[N+]2=C1C.Cc1ccc(C(C)C)cc1.[Cl-]` the stability time was at least 2.5 weeks (DMSO-d6 solution).
`O=C(CN1C(=O)C2(CCN(C(=O)c3ccc4[nH]ncc4n3)CC2)c2c(Br)cccc21)NCC(F)(F)F` has a half-life of 2.2 h (male C57BL/6 mouse, plasma; oral, 10 mg/kg).
Under “mean corpuscular haemoglobin”, `COc1ccc(CNc2ccc3c(c2)S(=O)(=O)C=C3)cc1` is recorded as 15.9 pg (male C57BL/6 mice, blood; intraperitoneal, 10 mg/kg, day 8, group average).
For `CC(C)C[C@H](NC(=O)CNC(=O)[C@H](Cc1ccccc1)NC(=O)[C@@H](NC(=O)[C@@H](NC(=O)c1cccc(S(=O)(=O)F)c1)[C@@H](C)O)C(C)C)C(=O)N[C@@H](CC(N)=O)C(=O)N[C@H](C(=O)N[C@@H](Cc1c[nH]c2ccccc12)C(=O)N[C@@H](CCCCN)C(=O)N[C@@H](CCCNC(=N)N)C(=O)N[C@@H](Cc1ccc(O)cc1)C(=O)N[C@@H](CO)C(=O)N[C@@H](CCCCN)C(=O)NCC(=O)N[C@@H](CCCCNc1ccc([N+](=O)[O-])cc1[N+](=O)[O-])C(N)=O)C(C)C`, the degradation half-life was about 24 h (chemical stability, LC-MS, UV trace; PBS/DMSO/water; 52 µM, 10% DMSO, 80% water).
`CC(C)=CCC/C(C)=C/CCn1cc(CC(P(=O)(O)O)P(=O)(O)O)nn1` gave a Vd of 37.6 L/kg (CD-1 mouse, plasma; intravenous, 0.5 mg/kg, single dose).
`O=C1CC[C@H](N2Cc3cc(N4CCNCC4)ccc3C2=O)C(=O)N1` has a fecal excretion of 4.76% (male Sprague-Dawley rat, faeces; oral, 20 mg/kg, 0-168 h; baseline: dose).
For `CC(C)[C@@H]1NC(=O)[C@H](Cc2ccc(O)cc2)NC(=O)[C@H](Cc2ccccc2)NC(=O)[C@H]([C@@H](C)O)NC(=O)[C@@H](Cc2ccc(O)cc2)NC(=O)CSC[C@H](C(=O)NCCOCCOCCOCCOCCOCCOCCC(N)=O)NC(=O)[C@H](C)NC(=O)[C@H](CO)NC(=O)[C@@H]2CCC[C@@H]2NC(=O)[C@H](Cc2c[nH]cn2)NC(=O)[C@H](CCCNC(=N)N)NC(=O)[C@H](Cc2ccc(O)cc2)NC(=O)[C@H]([C@@H](C)O)NC(=O)[C@H](Cc2ccccc2)NC(=O)[C@H]([C@@H](C)O)NC(=O)[C@H](Cc2ccc(O)cc2)NC(=O)[C@H](Cc2ccccc2)NC1=O`, the stability time was at least 24 h (HPLC; human serum; 10% serum, 37 °C).
For `O=C1NC2(CC2)COc2ncc(F)cc2[C@H]2COCCN2c2ccn3ncc1c3n2`, “organ-to-brain weight ratio” read 53.6 ± 2.19% (Sprague-Dawley rat, female, heart; oral, 5 mg/kg/day, 4 weeks dosing, end of recovery).
`C=Cc1c(C)c2cc3nc(c(CC(=O)[O-])c4[n-]c(cc5nc(cc1[n-]2)C(C)=C5CC)c(C)c4C(=O)[O-])C(CCC(=O)[O-])C3C.[Cu+2].[Na+].[Na+].[Na+]` (stereo not drawn) gave a serum AST of 108 ± 17.6 U/L (Wistar rat, female; oral, 250 mg/kg daily, 28 days).
`CC[C@H](C)[C@H](NC(=O)[C@H](Cc1c[nH]c2ccccc12)NC(=O)c1ccccc1)C(=O)N[C@@H](CCCNC(=N)N)C(=O)N[C@@H](Cc1ccc(O)cc1)C(=O)N[C@@H](CCCCN)C(=O)N[C@@H](Cc1c[nH]c2ccccc12)C(=O)N[C@H](CCCNC(=N)N)C(=O)N[C@@H](CCCNC(=N)N)C(=O)N[C@@H](CCCCN)C(=O)N[C@@H](CCCCN)C(=O)N[C@H](C(=O)N[C@@H](CCCNC(=N)N)C(=O)N[C@@H](Cc1ccc(O)cc1)C(=O)N[C@@H](Cc1c[nH]c2ccccc12)C(=O)N[C@H](C(=O)NCC(=O)N1CCC[C@H]1C(N)=O)[C@@H](C)O)C(C)C` gave a melting temperature of under 0 °C (circular dichroism; phosphate buffer; 30 µM, pH 6.5).
For `CC(C)[C@@H]1NC(=O)CNC(=O)[C@H](CC(N)=O)NC(=O)[C@H](CCCNC(=N)N)NC(=O)[C@H](Cc2ccc(O)cc2)NC(=O)[C@H](C(C)C)NC(=O)[C@@H](NC(=O)[C@@H](NC(=O)[C@H](CC(N)=O)NC(=O)[C@H](Cc2c[nH]c3ccccc23)NC(=O)[C@H](C)NC(=O)[C@H](Cc2ccccc2)NC(=O)CNC(=O)[C@H](CCCCN)NC(=O)[C@H](Cc2ccccc2)NC(=O)[C@H](Cc2ccccc2)NC(=O)[C@H](CCCCN)NC(=O)OCC2c3ccccc3-c3ccccc32)C(C)C)CSSC[C@@H](C(=O)N[C@@H](Cc2c[nH]cn2)C(=O)N[C@@H](CCCNC(=N)N)C(=O)N[C@@H](CCCNC(=N)N)C(=O)N[C@@H](C)C(=O)N[C@@H](CC(N)=O)C(N)=O)NC(=O)[C@H](C(C)C)NC(=O)[C@H](CCCNC(=N)N)NC1=O`, “mean platelet volume” read 6.93 ± 0.18 fL (ICR mice, blood; intraductal mammary, 10 mg/kg, day 5).
`CN[C@H](CC(C)C)C(=O)N[C@H]1C(=O)N[C@@H](CC(N)=O)C(=O)N[C@H]2C(=O)N[C@H]3C(=O)N[C@H](C(=O)N[C@H](C(=O)O)c4cc(O)cc(O)c4-c4cc3ccc4O)[C@H](O)c3ccc(c(Cl)c3)Oc3cc2cc(c3O[C@@H]2O[C@H](CO)[C@@H](O)[C@H](O)[C@H]2O[C@H]2C[C@](C)(NCc3ccc(-c4ccc(Cl)cc4)cc3)[C@H](O)[C@H](C)O2)Oc2ccc(cc2Cl)[C@H]1O` gave a Tmax of 0.25 h (mouse, plasma; intravenous, 75 mg/kg).
The viability of `Cc1ccc(OCCN(C)C)cc1C(=O)N[C@H](C)c1cc(-c2ccc(C(F)(F)F)s2)nc2ccccc12` is reported as 112% and 107% (Vero E6; 1.953 µM).
`CCc1nn(C)c2nc(-c3ccc(C(=O)O)cc3)nc(NCc3ccccc3)c12` has a body weight of 23 g and 24 g and 22.2 g and 23.5 g (NSG mice; dose not given, day 10 of treatment).
For `CC[C@H](C)[C@H](NC(=O)[C@H](C)NC(=O)[C@H](C)NC(=O)[C@H](CCC(N)=O)NC(=O)CNC(=O)[C@H](CC(C)C)NC(=O)[C@H](Cc1c[nH]cn1)NC(=O)[C@H](CCCCN)NC(=O)[C@H](C)NC(=O)CNC(=O)[C@H](CCCCN)NC(=O)[C@H](CCCNC(=N)N)NC(=O)[C@H](CC(C)C)NC(=O)[C@H](Cc1c[nH]c2ccccc12)NC(=O)[C@H](CCCCN)NC(=O)[C@H](CCCCN)NC(=O)[C@H](Cc1c[nH]c2ccccc12)NC(=O)CN)C(=O)N[C@@H](CCCCN)C(=O)NCC(=O)N[C@@H](CC(C)C)C(=O)N[C@@H](C)C(=O)N[C@@H](CO)C(=O)O`, “acute toxic concentration” read 5 µM (zebrafish embryos 28 hpf, E3 medium; 1 h).
